Measured values of several laboratories.
Numbered parts are unrelated; each lists some results of a single study.

Sample 1 — method: RNA Bind-n-Seq; molecule type: RNA; matrix: in vitro; tested at: 1 µM; notes: whole 134-nt RNA, ends assumed; added: 150 mM KCl; relative to: input library; reading: higher = stronger binding
Target: Ras GTPase-activating protein-binding protein 1, RRM domain (G3BP1, Homo sapiens, UniProt Q13283)
Chain of UniProt Q13283 (whole entry, looked up): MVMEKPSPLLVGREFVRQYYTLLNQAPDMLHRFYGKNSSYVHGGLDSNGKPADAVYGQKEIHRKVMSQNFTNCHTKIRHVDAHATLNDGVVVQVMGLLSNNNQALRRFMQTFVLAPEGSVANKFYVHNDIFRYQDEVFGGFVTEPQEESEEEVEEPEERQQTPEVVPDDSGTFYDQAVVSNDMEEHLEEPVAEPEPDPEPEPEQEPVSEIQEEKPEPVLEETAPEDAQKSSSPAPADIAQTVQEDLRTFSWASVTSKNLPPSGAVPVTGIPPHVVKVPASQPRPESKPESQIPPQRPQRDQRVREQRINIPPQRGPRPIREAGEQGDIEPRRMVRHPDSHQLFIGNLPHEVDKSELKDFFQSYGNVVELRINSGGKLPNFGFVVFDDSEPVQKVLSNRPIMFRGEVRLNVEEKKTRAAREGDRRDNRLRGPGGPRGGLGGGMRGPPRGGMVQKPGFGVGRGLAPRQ
Sequence	log2 enrichment
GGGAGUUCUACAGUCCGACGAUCGCAGGAAGUAGAAACAAAUGGAAAUGCUUCGGAUAGUGGCAGGGGUGGGGGUUGCUAAGGAAAGGGUGGGAUGGGAGUGGGUAAAGAGUUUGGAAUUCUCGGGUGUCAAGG	1.21
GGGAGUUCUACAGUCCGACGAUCAAGUCCUGUGCUACACAUCGUAUGUACCGAAUCGGGGAGGGGUUUUUGGGGAGGGGAAAGUAUUAUGUUACGCCGUUCGGAUCUGCACUUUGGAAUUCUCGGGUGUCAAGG	0.978
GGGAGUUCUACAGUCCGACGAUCUUAUGGAGUUUGGCCCUGAGGACAUGCUGCUGGGCAUGGAUGAGGCUGAAGAUGAUGAGGACCUGGAGGCUGAGCUGCUGGCUCUCACAGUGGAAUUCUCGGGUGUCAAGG	-0.366
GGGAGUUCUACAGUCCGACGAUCUGGGAGGUGGAUUUUGUUUAUUUUUUUAGCUCAUUUCCAGGGGUGGCAAUUUUUUUUUAAUAUGUGUCAUGAAUAAAGUUGUUUUUGAAAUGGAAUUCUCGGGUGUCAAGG	2.07
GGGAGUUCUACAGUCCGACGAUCUGGGAGGUGGAUUUUGUUUAUUUUUUUAGCUCAUUUCCAGGGGUGGGAAUUUUUUUUUAAUAUGUGUCAUGAAUUAAGUUGUUUUUGAAAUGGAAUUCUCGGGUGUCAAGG	1.21
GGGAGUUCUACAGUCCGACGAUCAAGUCCUGUGCUACACAUCGUAUGUACCGAAUCGGUUUUUUUGGUUUUUGGAAAGGAAAGUAUUAUGUUACGCCGUUCGGAUCUGCACUUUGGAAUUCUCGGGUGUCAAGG	-0.176
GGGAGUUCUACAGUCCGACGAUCAGGGAGGUGGAUUUUGUUUAUUUUUUUAGCUCAUUUCCAGGGGUGGGAAUUUUUUUUUAAUAUGUGUCAUGAAUAAAGUUGUUUUUGAAAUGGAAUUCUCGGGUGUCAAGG	1.99
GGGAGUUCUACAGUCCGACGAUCCUGCGCGCGGAUUUCCCUCUCUGAGGAAGUUUAUCCUUGUGCCUUCUGGAGGAUUUCUCUCUAGCUCGACUCACUCUGGACUGACUCGCUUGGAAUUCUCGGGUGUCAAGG	-0.283
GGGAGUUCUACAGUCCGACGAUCUCAAGUCCUGUGCUACACAUCGUAUGUACCGAAUCGGGGUUUGGGUUUGGUUUGGAAAGUAUUAUGUUACGCCGUUCGGAUCUGCACUUCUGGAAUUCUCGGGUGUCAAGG	-0.412

Sample 2 — method: protein-binding microarray; molecule type: double-stranded DNA, one strand shown; matrix: in vitro; tested at: 2540 nM top; notes: 60-bp whole probe; added: salmon DNA 0.4 mg/ml; relative to: random background probes; reading: higher = stronger binding; shared flanks, not repeated: GCCTAGCAC … GTCTTGATTCGCTTGACGCTGCTG
Target: Interferon regulatory factor 3, full length, phosphomimetic (IRF3, Homo sapiens, UniProt Q14653, residues 1-427, S386D/S396D/S398D/S402D/T404D/S405D)
Chain of UniProt Q14653 (whole entry, unmodified, looked up): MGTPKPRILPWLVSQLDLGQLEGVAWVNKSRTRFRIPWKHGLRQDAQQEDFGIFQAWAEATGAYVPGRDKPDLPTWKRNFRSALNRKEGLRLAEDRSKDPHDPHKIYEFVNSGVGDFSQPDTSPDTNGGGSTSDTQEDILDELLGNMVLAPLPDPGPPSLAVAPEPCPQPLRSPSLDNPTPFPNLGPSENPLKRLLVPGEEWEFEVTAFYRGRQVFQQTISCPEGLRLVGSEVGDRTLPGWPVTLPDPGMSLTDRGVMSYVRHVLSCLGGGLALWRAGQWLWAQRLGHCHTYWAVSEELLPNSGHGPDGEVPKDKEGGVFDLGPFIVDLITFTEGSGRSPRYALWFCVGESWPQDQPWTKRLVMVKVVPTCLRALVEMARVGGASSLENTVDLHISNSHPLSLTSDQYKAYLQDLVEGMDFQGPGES
Sequence	fitted relative affinity [z-score]
TTAGGTTTCGACAGTGGGTTAGTGCTA	1.54
TTGGCTTCCTCTTTCTCTGCGTGCTAG	0.518
ATGAGCCTCTGTTTTGAGCAGTGCTAG	-0.551
TCATCCTTTGCTTTCTCACTGTGCTAG	0.872
TTAGGACTGGATACTGGGTTAGTGCTA	-0.361
TTAGGTTTCGACCTTCGGTTAGTGCTA	2.93
GAAGGTATCGGACTGGGGACGTGCTAG	0.901
TTAGAACGGAGACTGGATTAGTGCTAG	0.276
GACGGACTGGGTTTCGGGACGTGCTAG	1.16
GACGATCTCAGACTGGAGTCGTGCTAG	0.502
GACGTTATCGACTATCGGGACGTGCTA	0.0277
GACAGTTTCGGGTTTCGGGACGTGCTA	5.94
GACGATATCCGTATCGAGACGTGCTAG	1.93
CCACTTTCAGTTCTCCCTTTGTGCTAG	6.23
TCAAGTTTCTATTTTCTACTGTGCTAG	4.63
TCAAAAAAAAAAAACTGTACTGTGCTA	-0.514
TCACGTGACCCTCTCAAACTGTGCTAG	0.113
TTAGGTTTCGACACTGGGGTAGTGCTA	2.54
GACTGTATCGACTTTCGGGACGTGCTA	1.31

Sample 3 — method: protein binding microarray; molecule type: double-stranded DNA, one strand shown; matrix: in vitro; tested at: not given; relative to: not given; reading: higher = stronger binding
Target: Histone acetyltransferase KAT6A, winged helix 1, GST fusion (KAT6A, Homo sapiens, UniProt Q92794, residues 1-85)
Notes: 8-mer, flanks averaged, mean of 2 arrays, mostly near background
Target sequence (chain): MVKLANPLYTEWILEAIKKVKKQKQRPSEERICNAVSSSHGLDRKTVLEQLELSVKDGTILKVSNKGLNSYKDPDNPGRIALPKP
Sequence	E-score
TAGGGGAA	-0.218
GGCATTTA	-0.0368
AGTCCCTA	-0.0681
AGTTACTG	-0.0555
TGACACCA	-0.209
ACTGACGA	-0.155
CGCTGAAC	0.162
AGAGTGAC	-0.123
CTGCATAC	-0.114
CCGTTCCC	0.228
CAAACTAA	-0.0783
ATTAGAGC	-0.0124
CAACCTCC	0.0669
ATTCCAAT	-0.112
GCGAACAC	0.0774
ACCTTGTA	-0.14
ACAACAGT	-0.213
CAGGCTAG	-0.173
CACAGGGC	-0.0355
AACCGCCA	0.112
AGGATATG	-0.0373
ACTGAGAG	-0.232
CTATTCTA	-0.178
AATGCGGA	0.135
CCTGCCTC	-0.126

Sample 4 — method: RNA Bind-n-Seq; molecule type: RNA; matrix: in vitro; tested at: 365 nM; relative to: no-protein control; reading: higher = stronger binding
Target: RNA binding protein fox-1 homolog 2, RRM domain, GST-SBP tag (RBFOX2, Homo sapiens, UniProt O43251-10, residues 100-194)
Notes: natural RNA segment, single round, ends assumed
Target sequence (chain): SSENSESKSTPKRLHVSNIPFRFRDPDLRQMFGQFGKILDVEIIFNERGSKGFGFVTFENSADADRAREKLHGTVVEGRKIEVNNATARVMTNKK
Sequence	RBNS enrichment (R)
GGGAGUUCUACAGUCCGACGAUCAUGCUUAUAUACACAUUCCUUAGGUUGGAAGAAUAUCCACGGACAAUGCACUUAUUUUUAAACGAGCAUGACAUGAGGUGUGUUUAUAAAUUAUCAGGGAUUUUAUGUAUUGGAAUUCUCGGGUGCCAA	5.28
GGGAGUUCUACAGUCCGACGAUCGUAAAUAUGGAAAUGCCACAUUGGUUAAGUGCCAUCAAUUGUAAUGCAGUGUGUCAUUUGAAAAGAGAUUUGAAGAACUGACAGCUUAAAGCCCAAGCGGGAAACCCGCCUGGAAUUCUCGGGUGCCAA	0.472
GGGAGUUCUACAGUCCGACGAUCGGAUGUCUGCGCCAGGGCCAGCCACAUGUGCAGUUUCUCUGACCCUUUUGCCUUGACAGGUCUCUCCUUGGGAUUUGCUCCUCCAGAACCUGAAUUGGAGAGCUUGACCUUGGAAUUCUCGGGUGCCAA	0.481
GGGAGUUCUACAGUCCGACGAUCUGCCCUUGGUUUACUGAGGGGGGUCUUGGUUGCUGCUGAAGCCCCCCACCCCUUCUAAAGUGCAAUGCAAAAGGGACAUCAUGUAUAUGCAGCGUUUGUUUGGAAUUUUCUGGAAUUCUCGGGUGCCAA	0.676
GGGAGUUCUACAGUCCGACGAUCACAUCCUUGACUUUCAUUCCCCCAACCUCCAGCAGGUUGGCCCCAAUCCUCUUCACCUCUGUGUUUUCUUCUAGAAGAUGCAUUUUGGGUCUGAGAGGAGCAUUUUCCUGUGGAAUUCUCGGGUGCCAA	0.257
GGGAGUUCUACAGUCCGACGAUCUGUUUGGGCCUUCCCCAUCCUAUUGGACUGGCUGAUGCUCCUAGUUUAUAAUGUUCUGGCGUUGUAGCAGAAGGUUGGAUGACACACAAGCAUCUGAAACGUGCCAGCCUUGGAAUUCUCGGGUGCCAA	0.284
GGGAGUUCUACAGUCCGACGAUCCUGCAGACAGUUGGAUGAGUCCCUUAGAGAAGGCAUCCAGAGACAUAACUAAACUGAAUAUCAUCCCAUAUUGAUUUUAGGAAUUGACUCUAAAACUCUGUGCAGAAUCUUGGAAUUCUCGGGUGCCAA	0.55
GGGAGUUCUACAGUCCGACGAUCACUGUGUAAUUAUGUAUAAAGUUUUUUUAUUUAUUUGAAGUUAGACUAGAUAUACGUUUUUAAAUUUAACAUCUGGCUGGACAGUGUUCUAUUAACUCAUUGAAUGUGUUUGGAAUUCUCGGGUGCCAA	1.09

Repeated from above (sample 3):
Sequence	E-score
CAAACTAA	-0.0783
ATTAGAGC	-0.0124
CAACCTCC	0.0669
ATTCCAAT	-0.112
GCGAACAC	0.0774
ACCTTGTA	-0.14
ACAACAGT	-0.213
CAGGCTAG	-0.173
CACAGGGC	-0.0355
AACCGCCA	0.112
